Experimental data pooled from the literature.
Numbered parts are unrelated; each lists some results of a single study. Substitutions count along the parent as printed.

Series 1 — technique: RNA Bind-n-Seq; form: RNA; matrix: in vitro; concentration: 365 nM; reference: no-protein control; direction: higher = stronger binding
Target: RNA binding protein fox-1 homolog 2, RRM domain, GST-SBP tag (RBFOX2, Homo sapiens, UniProt O43251-10, residues 100-194)
Notes: natural RNA segment, single round, ends assumed
Residues (chain): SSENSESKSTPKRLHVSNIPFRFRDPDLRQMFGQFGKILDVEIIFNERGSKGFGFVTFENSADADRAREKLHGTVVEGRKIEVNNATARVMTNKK
For `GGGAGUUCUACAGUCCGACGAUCAGGGAUUUAUCCAAUCUAAGCCCUAACCCCACUUAGUGACCUCAGUGUUUUCUUCCAUUCCUUCUUACUGCCCUGUCCUCUGCCUUGGAAGAGGCUUUGGGAAUAGUUCAUGGAAUUCUCGGGUGCCAA`, “RBNS enrichment (R)” read 0.252.
For `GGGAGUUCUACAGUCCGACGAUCAGGGGUAACCUGCUUACAUCUGGACUUUAGAAUCUGGCACACAACAAAAGUGCCUGGCAUCCACUACUGCUGCCUUUCAUUUAUAAUAAUAGCCCUUCCAUCUGGCAGUGUGGAAUUCUCGGGUGCCAA`, “RBNS enrichment (R)” read 0.381.
`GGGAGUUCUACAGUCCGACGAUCGGGACAAGAGGCCUGGACUGAGAUGUGAGUCCCAUGGAAGACUUCCUCUCCACCCCCCACAUCGGUCCUCUCAAAUACCCAAUGGGAUUCCAGCUUGAAGGAUUGCAUCCUGGAAUUCUCGGGUGCCAA`: “RBNS enrichment (R)” 0.763.
Under “RBNS enrichment (R)”, `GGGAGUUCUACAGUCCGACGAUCCUUCCCUCUGAGCUGCUCAGAGAGGGUAGCUAGCCCAAUGAUGUGGCCCGUGGACAGGAUAAGCAGAUGCACCUGUGACUGACUGGAGGCGUGUUGCUGUGUAUCCCGGGUGGAAUUCUCGGGUGCCAA` is recorded as 0.69.
Under “RBNS enrichment (R)”, `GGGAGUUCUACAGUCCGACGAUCAUUCCUCAGGGACAGGUACCUGUACCUACCCCGAUUCCAAACCUACCUGCCUGGUGAGAACUCCUGCCCCUGCCUACAAAGGGUACACAACCUACCCAUCAUCCCUAGUGUGGAAUUCUCGGGUGCCAA` is recorded as 0.542.
Under “RBNS enrichment (R)”, `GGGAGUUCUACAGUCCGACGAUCUUUCAUCUGUGUUCUGAAAUAUAAAAUACAACCAAAAUUCUACCUUCAUCCUACCCAGAAAUUAUUGAUUUUCAAGUUUUAAAAAAAUUGUACCUUUUUUGCUGACAGAAUGGAAUUCUCGGGUGCCAA` is recorded as 0.755.
Under “RBNS enrichment (R)”, `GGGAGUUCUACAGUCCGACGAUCUUAUUCUACCCUAUUUUAUAAUGCAGGACUUUUGUAAUGUUGUUUAAAUGAGGAAAAAUUUCUGUCAAAUUAGCCUAGUAAAAUUUCUGAUCGUUCAUUAUAAAGGCAGCUGGAAUUCUCGGGUGCCAA` is recorded as 0.472.
`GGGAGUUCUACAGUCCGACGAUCGCUAAUGCAAUUAGCAUUAUGUUUUGCAUGUAUGACUUAAUAAAUCCUUGAAUCAUACGACUGGUAAUACUGGUGUUUUUGAGACUUGAUGAACAAGUUCCUGGUGUGUGUGGAAUUCUCGGGUGCCAA` — result for “RBNS enrichment (R)”: 2.56.

Series 2 — technique: RNA Bind-n-Seq; form: RNA; matrix: in vitro; concentration: 200 nM; notes: whole 134-nt RNA, ends assumed; with: 150 mM LiCl; reference: input library; direction: higher = stronger binding; each molecule: 7-deaza-guanosine replaces G
Target: Ras GTPase-activating protein-binding protein 1, full length (G3BP1, Homo sapiens, UniProt Q13283)
Chain of UniProt Q13283 (whole entry, looked up): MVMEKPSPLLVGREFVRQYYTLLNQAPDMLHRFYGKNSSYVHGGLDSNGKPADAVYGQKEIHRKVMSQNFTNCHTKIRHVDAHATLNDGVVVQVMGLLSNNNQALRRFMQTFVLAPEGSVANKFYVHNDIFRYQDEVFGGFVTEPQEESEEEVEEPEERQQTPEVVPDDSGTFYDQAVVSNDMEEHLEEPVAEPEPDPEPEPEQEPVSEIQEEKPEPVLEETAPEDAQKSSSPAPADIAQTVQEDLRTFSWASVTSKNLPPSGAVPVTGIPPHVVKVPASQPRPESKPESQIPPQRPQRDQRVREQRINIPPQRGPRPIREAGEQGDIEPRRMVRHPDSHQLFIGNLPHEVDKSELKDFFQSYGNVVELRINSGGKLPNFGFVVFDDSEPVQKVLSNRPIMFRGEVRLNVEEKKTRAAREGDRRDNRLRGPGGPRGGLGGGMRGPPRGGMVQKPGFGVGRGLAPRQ
`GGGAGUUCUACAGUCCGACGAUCUGUGCUACACAUCGUAUGUACCGAAUCGGGGAAAAAAAGGGGAAAAAAAGGGGUUUUUGGGGAAAGUAUUAUGUUACGCCGUUCGGAUCUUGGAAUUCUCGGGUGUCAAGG` has a log2 enrichment of -0.235.
For `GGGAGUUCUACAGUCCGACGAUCGUCCUGUGCUACACAUCGUAUGUACCGAAUCGGGAAAAAAGGAAAAAAGGAAAAAAGGGAAAGUAUUAUGUUACGCCGUUCGGAUCUGCAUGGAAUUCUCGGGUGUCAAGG`, the log2 enrichment was -0.237.
With `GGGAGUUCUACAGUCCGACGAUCUGGCCCUGGUGGCAUGCGGGGAGGAAGAGGUGGCCUCAUGGAUCGUGGUGGUCCCGGUGGAAUGUUCACAGGUGGCCGUGGUGGAGACAGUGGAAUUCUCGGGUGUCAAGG` the log2 enrichment was -0.0687.
The log2 enrichment of `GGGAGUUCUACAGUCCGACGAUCCCCAUCAUGUUCAGAGGUGAGGUCCGUCUGAAUGUCGAAGAGAAGAAGACUCGAGCUGCCAGGGAAGGCGACCGACGAGAUAAUCGCCUUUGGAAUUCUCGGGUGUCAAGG` is reported as -2.26.
For `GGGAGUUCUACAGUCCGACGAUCCAAGUCCUGUGCUACACAUCGUAUGUACCGAAUCGGGCCCGGGCCCGGGGCCCGGAAAGUAUUAUGUUACGCCGUUCGGAUCUGCACUUCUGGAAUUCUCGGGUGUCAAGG`, the log2 enrichment was -0.973.
For `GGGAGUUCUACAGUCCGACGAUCCCACCAUGACCCCUGACGGUCUGGCUGUGACCCCAACGCCGGUGCCCGUGGUCGGGAGCCAGAUGACCAGACAAGCCCGGCGCCUCUACGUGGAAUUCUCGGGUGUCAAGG`, the log2 enrichment was 0.851.
For `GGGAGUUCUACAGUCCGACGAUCUCAAGUCCUGUGCUACACAUCGUAUGUACCGAAUCGGGUUUGGGUUUGGGUGGGAAAGUAUUAUGUUACGCCGUUCGGAUCUGCACUUCCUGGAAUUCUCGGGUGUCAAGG`, the log2 enrichment was -0.572.
The log2 enrichment of `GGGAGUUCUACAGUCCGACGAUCCAAGUCCUGUGCUACACAUCGUAUGUACCGAAUCGGGGCCCGGGGCCCGGCCCGGAAAGUAUUAUGUUACGCCGUUCGGAUCUGCACUUCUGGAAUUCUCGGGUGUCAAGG` is reported as -1.38.

Series 3 — target: MAFF, bZIP domain (human); technique: DHFR protein complementation; matrix: yeast; reference: wild-type JUN-FOS pair; direction: higher = stronger binding
Notes: single substitutions, most at no-binding floor
Parent: JUN, bZIP domain (human); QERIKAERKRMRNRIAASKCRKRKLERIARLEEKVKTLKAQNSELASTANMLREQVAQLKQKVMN; partner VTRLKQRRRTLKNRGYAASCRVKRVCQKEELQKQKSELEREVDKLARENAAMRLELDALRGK
`E32M` gave a binding fitness of -1.51 natural log.
`N42R` has a binding fitness of -0.526 natural log.
With `T37M` the binding fitness was -1.3 natural log.
With `E44K` the binding fitness was -1.5 natural log.
With `Q55Y` the binding fitness was -1.49 natural log.
The binding fitness of `L52A` is reported as -1.57 natural log.
The binding fitness of `L45C` is reported as -1.57 natural log.
`Q41M` has a binding fitness of -1.43 natural log.
The binding fitness of `T48A` is reported as -1.45 natural log.
With `E32W` the binding fitness was -1.51 natural log.
For `R30H`, the binding fitness was -1.3 natural log.
For `N42S`, the binding fitness was -1.43 natural log.
`E32S` gave a binding fitness of -1.5 natural log.
The binding fitness of `L59T` is reported as -1.65 natural log.
For `Q41G`, the binding fitness was -1.52 natural log.
The binding fitness of `V56F` is reported as -1.48 natural log.

Series 4 — target: CCNB2, cyclin fold, Cln2 fusion (human); technique: yeast growth competition, sequencing; matrix: yeast; notes: weak parent motif; reference: not given; direction: higher = stronger binding
Parent: SLBP docking peptide (human); ARYKRKLLINDFG; partner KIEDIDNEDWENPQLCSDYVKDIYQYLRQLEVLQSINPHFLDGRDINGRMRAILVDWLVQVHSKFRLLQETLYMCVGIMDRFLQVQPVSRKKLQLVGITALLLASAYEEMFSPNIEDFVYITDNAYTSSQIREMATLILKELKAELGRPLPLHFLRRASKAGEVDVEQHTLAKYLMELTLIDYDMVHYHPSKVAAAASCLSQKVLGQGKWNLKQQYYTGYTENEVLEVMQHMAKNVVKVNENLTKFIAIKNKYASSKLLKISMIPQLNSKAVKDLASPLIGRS
`I9W`: “normalised enrichment score” 0.849.
`N10F` — result for “normalised enrichment score”: 0.578.
For `G13C`, “normalised enrichment score” read 0.587.
`G13M` — result for “normalised enrichment score”: 0.662.
`R5A` — result for “normalised enrichment score”: 0.474.
Under “normalised enrichment score”, `K4Y` is recorded as 0.192.
Under “normalised enrichment score”, `L8P` is recorded as 0.474.
Under “normalised enrichment score”, `A1M` is recorded as 0.929.
`Y3I`: “normalised enrichment score” 0.482.
`A1N` — result for “normalised enrichment score”: 0.649.
`D11H` — result for “normalised enrichment score”: 0.729.
For `Y3P`, “normalised enrichment score” read 0.291.
`G13D`: “normalised enrichment score” 0.0321.
`R5K` — result for “normalised enrichment score”: 1.04.
`L8I` — result for “normalised enrichment score”: 0.608.
`L8M`: “normalised enrichment score” 0.766.
`G13E` — result for “normalised enrichment score”: 0.4.
`K6G` — result for “normalised enrichment score”: 0.767.

Repeated from above (series 1):
For `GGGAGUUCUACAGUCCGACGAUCAGGGGUAACCUGCUUACAUCUGGACUUUAGAAUCUGGCACACAACAAAAGUGCCUGGCAUCCACUACUGCUGCCUUUCAUUUAUAAUAAUAGCCCUUCCAUCUGGCAGUGUGGAAUUCUCGGGUGCCAA`, “RBNS enrichment (R)” read 0.381.
`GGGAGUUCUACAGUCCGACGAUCGGGACAAGAGGCCUGGACUGAGAUGUGAGUCCCAUGGAAGACUUCCUCUCCACCCCCCACAUCGGUCCUCUCAAAUACCCAAUGGGAUUCCAGCUUGAAGGAUUGCAUCCUGGAAUUCUCGGGUGCCAA`: “RBNS enrichment (R)” 0.763.
Under “RBNS enrichment (R)”, `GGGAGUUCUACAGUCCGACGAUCCUUCCCUCUGAGCUGCUCAGAGAGGGUAGCUAGCCCAAUGAUGUGGCCCGUGGACAGGAUAAGCAGAUGCACCUGUGACUGACUGGAGGCGUGUUGCUGUGUAUCCCGGGUGGAAUUCUCGGGUGCCAA` is recorded as 0.69.
Under “RBNS enrichment (R)”, `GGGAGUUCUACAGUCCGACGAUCAUUCCUCAGGGACAGGUACCUGUACCUACCCCGAUUCCAAACCUACCUGCCUGGUGAGAACUCCUGCCCCUGCCUACAAAGGGUACACAACCUACCCAUCAUCCCUAGUGUGGAAUUCUCGGGUGCCAA` is recorded as 0.542.
